{"data": "Results from different studies", "note": "A part holds a random share of what one study measured."}
{"data": "Study 1", "target": "RNA binding protein fox-1 homolog 2, RRM domain, GST-SBP tag (RBFOX2, Homo sapiens, UniProt O43251-10, residues 100-194)", "method": "RNA Bind-n-Seq", "form": "RNA", "matrix": "in vitro", "tested at": "365 nM", "setting": "natural RNA segment, single round, ends assumed", "baseline": "no-protein control", "reading": "higher = stronger binding", "Residues (chain)": "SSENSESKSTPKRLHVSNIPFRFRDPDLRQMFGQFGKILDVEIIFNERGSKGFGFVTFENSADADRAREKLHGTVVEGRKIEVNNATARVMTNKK"}
{"Sequence": "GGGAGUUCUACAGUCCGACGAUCUCUAACAGAGGAAAAAAAAUUUAAAAAGAGGGUAAGAAAUGACUCCAGUGGGGUGAUUUUAACAUGCAAAUGUCUGAGAUUUCUUCACUUGCUUUCUUCCUUACUCUGCCUGGAAUUCUCGGGUGCCAA", "RBNS enrichment (R)": 0.339}
{"Sequence": "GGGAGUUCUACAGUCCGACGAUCGACCUGAGAAAGAGUAAGGAGGCCAGGCAGGGCCUUGGGCCCAGGAACAGGUACCUUGAGAGUGAGAGCUACCCAUUGCCUGUGGCCUAAAUCUGCUGUGCAGGUUGGGCUGGAAUUCUCGGGUGCCAA", "RBNS enrichment (R)": 2.88}
{"Sequence": "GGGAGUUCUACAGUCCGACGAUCGCUGAGCAGCUCAGGCUGUGGCCCUUACCUCCAGUCCUCACCUCAACCUGCGCUGCAGCCUCCCUCCCCCCUGCACAUCACUGGCAUGUGUGCUGCUUGACCACCCCCCCUGGAAUUCUCGGGUGCCAA", "RBNS enrichment (R)": 1.48}
{"Sequence": "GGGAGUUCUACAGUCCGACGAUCGCCUAAUCAGCCCACCAUGUUCUCCACUGAAAAAUCCUCUUUCUUUGGGGUUUUUCUUUCUUUCUUUUUUGAUUUUGCACUGGACGGUGACGUCAGCCAUGUACAGGAUCUGGAAUUCUCGGGUGCCAA", "RBNS enrichment (R)": 0.44}
{"Sequence": "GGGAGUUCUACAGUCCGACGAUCCUGACCCUUUGGAGGGGGUCUCUGUGUGCUGAAGCUAACUCAAGAUGGAAAGUGAAACCACAUGUGCCGUGACCUUUAGGUUUUAUGAGUAGACAGUGUUCAUUUGAUUUUGGAAUUCUCGGGUGCCAA", "RBNS enrichment (R)": 0.413}
{"data": "Study 2", "target": "Fragile X messenger ribonucleoprotein 1, C-terminal low-complexity region (Fmr1, Mus musculus, UniProt P35922)", "method": "RNA Bind-n-Seq", "form": "RNA", "matrix": "in vitro", "tested at": "200 nM", "setting": "whole 134-nt RNA, ends assumed", "added": "150 mM KCl", "baseline": "input library", "reading": "higher = stronger binding"}
{"Sequence": "GGGAGUUCUACAGUCCGACGAUCACCAUGCAGGUGGGCAUCUUUGGGAAGUGGGGCAAGGGGGGGAUAGGGAGGGGGGUAACACUUUGGGAACAGGUGGUCCCAAGUCGUUUCUGGAAUUCUCGGGUGUCAAGG", "log2 enrichment": 0.721}
{"Sequence": "GGGAGUUCUACAGUCCGACGAUCGUCCUGUGCUACACAUCGUAUGUACCGAAUCGGGAAAGGGUUUUUGGGUUUUUUUGGGAAAGUAUUAUGUUACGCCGUUCGGAUCUGCACUGGAAUUCUCGGGUGUCAAGG", "log2 enrichment": -0.0366}
{"Sequence": "GGGAGUUCUACAGUCCGACGAUCCUCAAGUCCUGUGCUACACAUCGUAUGUACCGAAUCGGGUUGGUUGGGGUUGGAAAGUAUUAUGUUACGCCGUUCGGAUCUGCACUUCCAUGGAAUUCUCGGGUGUCAAGG", "log2 enrichment": 0.34}
{"data": "Study 3", "target": "Histone acetyltransferase KAT6A, both winged helices, GST fusion (KAT6A, Homo sapiens, UniProt Q92794, residues 1-181)", "method": "protein binding microarray", "form": "double-stranded DNA, one strand shown", "matrix": "in vitro", "tested at": "not given", "setting": "8-mer, flanks averaged, mean of 2 arrays, mostly near background", "baseline": "not given", "reading": "higher = stronger binding", "Target sequence (chain)": "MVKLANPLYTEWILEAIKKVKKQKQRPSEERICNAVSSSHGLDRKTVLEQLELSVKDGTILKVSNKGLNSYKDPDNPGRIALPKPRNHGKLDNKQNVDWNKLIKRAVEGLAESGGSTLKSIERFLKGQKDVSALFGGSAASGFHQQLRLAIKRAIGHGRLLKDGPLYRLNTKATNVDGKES"}
{"Sequence": "GACATTAC", "E-score": -0.0363}
{"Sequence": "CTCGGCGA", "E-score": 0.309}
{"Sequence": "CACTGAGA", "E-score": -0.0775}
{"Sequence": "ACTAGCGA", "E-score": -0.000675}
{"data": "Single results of other studies"}
{"Substance": "PhoQ, residues 284 288 289 292 302 303 AGHLVA", "target": "PhoP, residues 12 14 15 18 19 LHSVW (Escherichia coli, UniProt P23836)", "test": "Sort-seq, refers to: YFP reporter", "system": "E. coli", "setting": "PhoQ-PhoP variant library, added: 10 µM Mg2+", "scale": "baseline: high Mg2+ state, higher = stronger signaling", "measurement": "fold induction", "result": 1.5}
{"note": "Repeated from above (study 3):"}
{"Sequence": "ACTAGCGA", "E-score": -0.000675}
